Results gathered from unrelated publications.
Lines come from different studies, so protocols differ. ± marks the error that the study gave.

SMILES | cell line | test | test system | setting | CC50
CC[C@H](C)[C@@H]1NC(=O)[C@H](CCCCN)NC(=O)[C@H](CCCCN)NC(=O)[C@H](Cc2ccc(O)cc2)NC(=O)[C@H](CC(C)C)NC(=O)[C@@H]2CCCN2C(=O)[C@H](C)NC(=O)CNC(=O)CNC(=O)[C@H](CO)NC(=O)CNC(=O)CNC(=O)[C@H](CO)NC(=O)[C@H](CCC(=O)O)NC(=O)[C@H](CC(C)C)NC(=O)[C@H](CC(C)C)NC(=O)[C@H](CCCCN)NC(=O)[C@H](CCCCN)NC(=O)[C@H]([C@@H](C)CC)NC(=O)[C@H]([C@@H](C)CC)NC(=O)[C@H](CCCCN)NC(=O)[C@H](CCCCN)NC(=O)[C@H](Cc2ccc(O)cc2)NC(=O)[C@H](CC(C)C)NC(=O)[C@@H]2CCCN2C(=O)CNC(=O)CNC(=O)CSC[C@@H](C(N)=O)NC(=O)[C@H](CC(C)C)NC(=O)[C@H](CCCCN)NC(=O)[C@H](CCCCN)NC(=O)[C@H]([C@@H](C)CC)NC1=O | human PBMC | cell viability, resazurin |  | 24 h | 5.1 ± 0.6 µM
O=C(CCN(CCC(=O)NC(Cc1c[nH]c2ccccc12)C(=O)O)C(=O)CCC(CCC(=O)N(CCC(=O)NC(Cc1c[nH]c2ccccc12)C(=O)O)CCC(=O)NC(Cc1c[nH]c2ccccc12)C(=O)O)(CCC(=O)N(CCC(=O)NC(Cc1c[nH]c2ccccc12)C(=O)O)CCC(=O)NC(Cc1c[nH]c2ccccc12)C(=O)O)[N+](=O)[O-])NC(Cc1c[nH]c2ccccc12)C(=O)O (centres unmarked) | RD |  |  | 3 (unit not given) | > 82 µM
COc1ccc(CNC(=O)C(NC(=O)C2CC2c2cc(C)cc(C)c2)c2ccc(C)c(C)c2)c(OC)c1 (mixture of isomers) | BHK-21 | cell growth or viability, MTT |  | 24 h | > 100 µM
O=C1CC(c2ccccc2)Oc2cc(O[C@@H]3O[C@H](CO)[C@@H](O)[C@H](O)[C@H]3O)ccc21 (some centres unmarked) | Vero E6-GFP | cell viability |  | 72 h, with: CP-100356 2 µM | > 100 µM
O=C(CCN(CCC(=O)NC(Cc1c[nH]c2ccccc12)C(=O)O)C(=O)CCOCC(COCCC(=O)N(CCC(=O)NC(Cc1c[nH]c2ccccc12)C(=O)O)CCC(=O)NC(Cc1c[nH]c2ccccc12)C(=O)O)(COCCC(=O)N(CCC(=O)NC(Cc1c[nH]c2ccccc12)C(=O)O)CCC(=O)NC(Cc1c[nH]c2ccccc12)C(=O)O)COCCC(=O)N(CCC(=O)NC(Cc1c[nH]c2ccccc12)C(=O)O)CCC(=O)NC(Cc1c[nH]c2ccccc12)C(=O)O)NC(Cc1c[nH]c2ccccc12)C(=O)O (centres unmarked) | RD |  |  | 3 (unit not given) | > 60 µM
CC[C@H](C)[C@H](NC(=O)[C@H](CCCNC(=N)N)NC(=O)[C@H](C)NC(=O)[C@H](Cc1cnc[nH]1)NC(=O)[C@@H](NC(=O)[C@H](Cc1ccccc1)NC(=O)[C@H](CC(C)C)NC(=O)[C@H](CC(C)C)NC(=O)[C@H](CCC(N)=O)NC(=O)[C@H](CCC(N)=O)NC(=O)[C@H](CC(C)C)NC(C)=O)[C@@H](C)CC)C(=O)NCC(=O)N[C@@H](CCCNC(=N)N)C(=O)N[C@@H](CCCNC(=N)N)C(=O)N[C@@H](CCCNC(=N)N)C(=O)N[C@@H](CCCNC(=N)N)C(=O)N[C@@H](CCCNC(=N)N)C(=O)N[C@@H](CCCNC(=N)N)C(=O)N[C@@H](CCCNC(=N)N)C(=O)N[C@@H](CCCNC(=N)N)C(N)=O | MT4 Luc | luciferase signal decrease |  |  | 10 µM
Cc1cc(C)cc([C@@H]2C[C@H]2C(=O)N[C@H](C(=O)NCc2ccccc2)c2ccc(C)c(C)c2)c1 | BHK-21 | cell growth or viability, MTT |  | 24 h | > 100 µM
Cc1ccc(C(C)C)cc1.F[P-](F)(F)(F)(F)F.[Cl][Ru-]1[NH2+]CC[NH2+]1 | Jurkat | PI flow cytometry |  | 20 h | 129 µM
N=C(N)NCCC[C@H]1NC(=O)[C@H](CCCN)NC(=O)[C@@H](Cc2c[nH]cn2)NC(=O)[C@H](Cc2ccc(O)cc2)NC(=O)[C@@H](Cc2ccc(O)cc2)NC(=O)[C@H](Cc2ccccc2)NC(=O)[C@@H](Cc2c[nH]c3ccccc23)NC(=O)[C@H](CO)NC1=O | SK-OV-3 | cytotoxicity |  |  | 6.9 µM
C1=[N+]2CCCC[N+]3=Cc4ccc5[n]4[Au-]23[n]2c1ccc2-c1nc2ccccc2nc1-5.F[P-](F)(F)(F)(F)F | NCI60 human cancer panel |  |  | mean of all cell lines | 86 µM
C=C(C)[C@@H]1CC[C@]2(C(=O)NC(CO)Cc3ccccc3)CC[C@]3(C)[C@H](CC[C@@H]4[C@@]5(C)CCCNC(C)(C)[C@@H]5CC[C@]43C)[C@@H]12 (some centres unmarked) | C-33 A | cell viability, CellTiter-Glo |  |  | 0.78 µM
CC(=O)CCC1C(=O)NC(C(C)C)C(=O)NC(Cc2cccc(O)c2)C(=O)N2CCCC(N2)C(=O)OC(C(C)=CC=CC(=O)N2CCCCO2)CC=CC=CC(O)C(C)C1O (centres unmarked) | Huh-5-2 | MTS |  | 3 days | > 100 µM
CCS(=O)(=O)N1CC(CC#N)(n2cc(-c3ncnc4[nH]ccc34)cn2)C1 | Calu-3, infected | alamarBlue |  | 24 h post infection | > 20 µM
O=C(CSc1c[nH]c2ccccc12)NCc1ccc(Cl)c(Cl)c1 | HEK293T | cell viability, CCK-8 |  | 24 h | 84.2 µM
CC[C@H](C)[C@H](NC(=O)[C@H](C)NC(=O)[C@H](Cc1ccccc1)NC(=O)[C@H](Cc1cnc[nH]1)NC(=O)[C@@H](NC(=O)[C@H](Cc1ccccc1)NC(=O)[C@H](CC(C)C)NC(=O)[C@H](CC(C)C)NC(=O)[C@H](CCC(N)=O)NC(=O)[C@H](CCC(N)=O)NC(=O)[C@H](CC(C)C)NC(C)=O)[C@@H](C)CC)C(=O)NCC(=O)N[C@@H](CCCNC(=N)N)C(=O)N[C@@H](CCCNC(=N)N)C(=O)N[C@@H](CCCNC(=N)N)C(=O)N[C@@H](CCCNC(=N)N)C(=O)N[C@@H](CCCNC(=N)N)C(=O)N[C@@H](CCCNC(=N)N)C(=O)N[C@@H](CCCNC(=N)N)C(=O)N[C@@H](CCCNC(=N)N)C(N)=O | MT4 Luc | luciferase signal decrease |  |  | 10 µM
C=C1C(=O)O[C@@H]2C[C@H](C)[C@@H]3C[C@H](O[Si](c4ccccc4)(c4ccccc4)C(C)(C)C)[C@H](O)[C@@]3(C)C[C@H]12 | mouse Splenocyte | cell growth or viability, flow cytometry | BALB/c | 48 h | 143 µM
O=C(CCN(CCC(=O)N[C@@H](Cc1c[nH]c2ccccc12)C(=O)O)C(=O)CCN(CCC(=O)N(CCC(=O)N[C@@H](Cc1c[nH]c2ccccc12)C(=O)O)CCC(=O)N[C@@H](Cc1c[nH]c2ccccc12)C(=O)O)C(=O)CCC(CCC(=O)N(CCC(=O)N(CCC(=O)N[C@@H](Cc1c[nH]c2ccccc12)C(=O)O)CCC(=O)N[C@@H](Cc1c[nH]c2ccccc12)C(=O)O)CCC(=O)N(CCC(=O)N[C@@H](Cc1c[nH]c2ccccc12)C(=O)O)CCC(=O)N[C@@H](Cc1c[nH]c2ccccc12)C(=O)O)(CCC(=O)N(CCC(=O)N(CCC(=O)N[C@@H](Cc1c[nH]c2ccccc12)C(=O)O)CCC(=O)N[C@@H](Cc1c[nH]c2ccccc12)C(=O)O)CCC(=O)N(CCC(=O)N[C@@H](Cc1c[nH]c2ccccc12)C(=O)O)CCC(=O)N[C@@H](Cc1c[nH]c2ccccc12)C(=O)O)[N+](=O)[O-])N[C@@H](Cc1c[nH]c2ccccc12)C(=O)O | RD |  |  |  | > 26 µM
C=C1C(=O)O[C@@H]2C[C@H](C)[C@@H]3C[C@H](O[Si](C)(C)C)[C@H](O[Si](C)(C)C)[C@@]3(C)C[C@H]12 | mouse Splenocyte | cell growth or viability, flow cytometry | BALB/c | 48 h | 66.4 µM
CCC(C)SSc1ncc[nH]1 (centres unmarked) | RD |  |  | 3 (unit not given), 33 °C, with: MgCl2 30 mM | 16.5 µM
CCOc1cccc(NC(=O)CSc2cn(C(=O)OC(C)(C)C)c3ccccc23)c1 | HEK293T | cell viability, CCK-8 |  | 24 h | > 100 µM

Some of these lines once more:
SMILES | cell line | test | test system | setting | CC50
C=C1C(=O)O[C@@H]2C[C@H](C)[C@@H]3C[C@H](O[Si](c4ccccc4)(c4ccccc4)C(C)(C)C)[C@H](O)[C@@]3(C)C[C@H]12 | mouse Splenocyte | cell growth or viability, flow cytometry | BALB/c | 48 h | 143 µM
CC[C@H](C)[C@H](NC(=O)[C@H](CCCNC(=N)N)NC(=O)[C@H](C)NC(=O)[C@H](Cc1cnc[nH]1)NC(=O)[C@@H](NC(=O)[C@H](Cc1ccccc1)NC(=O)[C@H](CC(C)C)NC(=O)[C@H](CC(C)C)NC(=O)[C@H](CCC(N)=O)NC(=O)[C@H](CCC(N)=O)NC(=O)[C@H](CC(C)C)NC(C)=O)[C@@H](C)CC)C(=O)NCC(=O)N[C@@H](CCCNC(=N)N)C(=O)N[C@@H](CCCNC(=N)N)C(=O)N[C@@H](CCCNC(=N)N)C(=O)N[C@@H](CCCNC(=N)N)C(=O)N[C@@H](CCCNC(=N)N)C(=O)N[C@@H](CCCNC(=N)N)C(=O)N[C@@H](CCCNC(=N)N)C(=O)N[C@@H](CCCNC(=N)N)C(N)=O | MT4 Luc | luciferase signal decrease |  |  | 10 µM
C1=[N+]2CCCC[N+]3=Cc4ccc5[n]4[Au-]23[n]2c1ccc2-c1nc2ccccc2nc1-5.F[P-](F)(F)(F)(F)F | NCI60 human cancer panel |  |  | mean of all cell lines | 86 µM
